Published values of several laboratories.
Lines come from different studies, so protocols differ. ± gives the spread as reported.

With `CCCC[C@H](NC(=O)CCCCCCCNC(=O)CN1CCN(CC(=O)O)CCN(CC(=O)O)CC1)C(=O)N[C@H]1CC(=O)NCCCC[C@@H](C(N)=O)NC(=O)[C@H](Cc2c[nH]c3ccccc23)NC(=O)[C@H](CCCNC(=N)N)NC(=O)[C@@H](Cc2ccccc2)NC(=O)[C@H](Cc2c[nH]cn2)NC1=O` [copper-64 labelled] the tissue uptake was 2.93 ± 0.22 %ID/g (C57 mice, skin; intravenous, 0.37 MBq, 0.5 h).
`N=C(N)NCCC[C@@H]1NC(=O)[C@H](CCCCNC(=O)CC[C@H](NC(=O)CC[C@H](NC(=O)CN2CCN(CC(=O)O)CCN(CC(=O)O)CCN(CC(=O)O)CC2)C(=O)N[C@@H](CCC(=O)NCCCC[C@@H]2NC(=O)[C@@H](Cc3ccccc3)NC(=O)[C@H](CC(=O)O)NC(=O)CNC(=O)[C@H](CCCNC(=N)N)NC2=O)C(=O)NCCCC[C@@H]2NC(=O)[C@@H](Cc3ccccc3)NC(=O)[C@H](CC(=O)O)NC(=O)CNC(=O)[C@H](CCCNC(=N)N)NC2=O)C(=O)NCCCC[C@@H]2NC(=O)[C@@H](Cc3ccccc3)NC(=O)[C@H](CC(=O)O)NC(=O)CNC(=O)[C@H](CCCNC(=N)N)NC2=O)NC(=O)[C@@H](Cc2ccccc2)NC(=O)[C@H](CC(=O)O)NC(=O)CNC1=O` [indium-111 labelled] gave a tissue uptake of 1.16 ± 0.63 %ID/g (female athymic nu/nu mice, spleen; intravenous, 111 kBq, 72 h).
The tissue uptake of `CCCC[C@H](NC(=O)CNC(=O)CNC(=O)CN1CCN(CC(=O)O)CCN(CC(=O)O)CCN(CC(=O)O)CC1)C(=O)N[C@H]1CC(=O)NCCCC[C@@H](C(N)=O)NC(=O)[C@H](Cc2c[nH]c3ccccc23)NC(=O)[C@H](CCCNC(=N)N)NC(=O)[C@@H](Cc2ccccc2)NC(=O)[C@H](Cc2c[nH]cn2)NC1=O` [lutetium-177 labelled] is reported as 0.05 ± 0.01 %ID/g (C57 mouse, female, brain; intravenous, 0.037 MBq, 2 h).
`N=C(N)NCCC[C@@H]1NC(=O)[C@H](CCCCNC(=O)CNC(=O)CNC(=O)CNC(=O)CC[C@H](NC(=O)CNC(=O)CNC(=O)CNC(=O)CN2CCN(CC(=O)O)CCN(CC(=O)O)CCN(CC(=O)O)CC2)C(=O)NCC(=O)NCC(=O)NCC(=O)NCCCC[C@@H]2NC(=O)[C@@H](Cc3ccccc3)NC(=O)[C@H](CC(=O)O)NC(=O)CNC(=O)[C@H](CCCNC(=N)N)NC2=O)NC(=O)[C@@H](Cc2ccccc2)NC(=O)[C@H](CC(=O)O)NC(=O)CNC1=O` [copper-64 labelled] has a tissue uptake of 3.62 ± 0.62 %ID/g (athymic nu/nu mouse, female, liver; intravenous, 4 h).
`N=C(N)NCCC[C@@H]1NC(=O)[C@H](CCCCNC(=O)CNC(=O)CNC(=O)CNC(=O)CC[C@H](NC(=O)CNC(=O)CNC(=O)CNC(=O)CN2CCN(CC(=O)O)CCN(CC(=O)O)CCN(CC(=O)O)CC2)C(=O)NCC(=O)NCC(=O)NCC(=O)NCCCC[C@@H]2NC(=O)[C@@H](Cc3ccccc3)NC(=O)[C@H](CC(=O)O)NC(=O)CNC(=O)[C@H](CCCNC(=N)N)NC2=O)NC(=O)[C@@H](Cc2ccccc2)NC(=O)[C@H](CC(=O)O)NC(=O)CNC1=O` [indium-111 labelled] has a tissue uptake of 3.88 ± 0.48 %ID/g (female athymic nu/nu mice, kidney; intravenous, 1 h).
`CCCC[C@H](NC(=O)COCCOCCNC(=O)CN1CCN(CC(=O)O)CCN(CC(=O)O)CC1)C(=O)N[C@H]1CC(=O)NCCCC[C@@H](C(N)=O)NC(=O)[C@H](Cc2c[nH]c3ccccc23)NC(=O)[C@H](CCCNC(=N)N)NC(=O)[C@@H](Cc2ccccc2)NC(=O)[C@H](Cc2c[nH]cn2)NC1=O` [copper-64 labelled] has a tissue uptake of 4.04 ± 0.12 %ID/g (C57 mice, lung; intravenous, 0.37 MBq, 0.5 h).
`CCCC[C@H](NC(=O)CNC(=O)CNC(=O)CN1CCN(CC(=O)O)CCN(CC(=O)O)CC1)C(=O)N[C@H]1CC(=O)NCCCC[C@@H](C(N)=O)NC(=O)[C@H](Cc2c[nH]c3ccccc23)NC(=O)[C@H](CCCNC(=N)N)NC(=O)[C@@H](Cc2ccccc2)NC(=O)[C@H](Cc2c[nH]cn2)NC1=O` [technetium-99m labelled] gave a tissue uptake of 0.19 ± 0.06 %ID/g (C57 mouse, muscle; iv, 0.037 MBq, 0.5 h).
`CC(C)C[C@H](NC(=O)[C@H](Cc1ccc(O)cc1)NC(=O)[C@@H](CCCNC(=N)N)NC(=O)[C@@H](CO)NC(=O)[C@H](Cc1ccccc1)NC(=O)[C@H](CC1CCCCC1)NC(=O)[C@H](CC(=O)O)NC(=O)CN1CCCN2CCN(CCCN(CC(=O)O)CC2)CC1)C(=O)N[C@@H](Cc1c[nH]c2ccccc12)C(=O)N[C@@H](CO)C(=O)O` [copper-64 labelled] has a tissue uptake of 1.4 ± 0.2 %ID/g (female NMRI nude mice, blood; 1 h p.i.).
The tissue uptake of `N=C(N)NCCC[C@@H]1NC(=O)[C@H](CCCCNC(=O)CNC(=O)CNC(=O)CNC(=O)CC[C@H](NC(=O)CNC(=O)CNC(=O)CNC(=O)CC[C@H](NC(=O)CN2CCN(CC(=O)O)CCN(CC(=O)O)CCN(CC(=O)O)CC2)C(=O)NCC(=O)NCC(=O)NCC(=O)N[C@@H](CCC(=O)NCC(=O)NCC(=O)NCC(=O)NCCCC[C@@H]2NC(=O)[C@@H](Cc3ccccc3)NC(=O)[C@H](CC(=O)O)NC(=O)CNC(=O)[C@H](CCCNC(=N)N)NC2=O)C(=O)NCC(=O)NCC(=O)NCC(=O)NCCCC[C@@H]2NC(=O)[C@@H](Cc3ccccc3)NC(=O)[C@H](CC(=O)O)NC(=O)CNC(=O)[C@H](CCCNC(=N)N)NC2=O)C(=O)NCC(=O)NCC(=O)NCC(=O)NCCCC[C@@H]2NC(=O)[C@@H](Cc3ccccc3)NC(=O)[C@H](CC(=O)O)NC(=O)CNC(=O)[C@H](CCCNC(=N)N)NC2=O)NC(=O)[C@@H](Cc2ccccc2)NC(=O)[C@H](CC(=O)O)NC(=O)CNC1=O` [indium-111 labelled] is reported as 2.35 ± 0.23 %ID/g (female athymic nu/nu mice, spleen; intravenous, 111 kBq, 4 h).
With `CC(C)C[C@H](NC(=O)[C@@H](CCCCNC(=O)CCCCCNC(=O)CN1CCN(CC(=O)O)CCN(CC(=O)O)CCN(CC(=O)O)CC1)NC(=O)[C@H](Cc1ccc(O)cc1)NC(=O)[C@H](CO)NC(=O)[C@H](Cc1c[nH]c2ccccc12)NC(=O)[C@H](Cc1cnc[nH]1)NC(=O)[C@@H]1CCC(=O)N1)C(=O)N[C@@H](CCCNC(=N)N)C(=O)N1CCC[C@H]1C(=O)NCC(N)=O` [indium-111 labelled] the tissue uptake was 9.28 ± 1.18 %ID/g (female athymic nude mouse, kidneys; intravenous, 0.037 MBq, 4 h).

A few entries again:
`CCCC[C@H](NC(=O)CNC(=O)CNC(=O)CN1CCN(CC(=O)O)CCN(CC(=O)O)CC1)C(=O)N[C@H]1CC(=O)NCCCC[C@@H](C(N)=O)NC(=O)[C@H](Cc2c[nH]c3ccccc23)NC(=O)[C@H](CCCNC(=N)N)NC(=O)[C@@H](Cc2ccccc2)NC(=O)[C@H](Cc2c[nH]cn2)NC1=O` [technetium-99m labelled] gave a tissue uptake of 0.19 ± 0.06 %ID/g (C57 mouse, muscle; iv, 0.037 MBq, 0.5 h).
